{"data": "Published values of several laboratories", "cell line": "HeLa", "note": "Compare with care: the assays were run in different laboratories. Numbers after ± are the reported error."}
{"SMILES": "CC[C@H](C)[C@@H]1NC(=O)[C@H](C)NC(=O)[C@H](C)NC(=O)[C@H]([C@@H](C)O)NC(=O)[C@H](Cc2ccccc2)NC(=O)[C@@H]2CSSC[C@@H]3NC(=O)[C@H](C)NC(=O)[C@H](CCCCN)NC(=O)[C@H](CO)NC(=O)[C@H](CCCCN)NC(=O)[C@@H]4CSSC[C@H](NC(=O)[C@H](CO)NC(=O)[C@H](CCC(=O)O)NC(=O)CNC(=O)[C@H](CSSC[C@H](NC(=O)CNC1=O)C(=O)N[C@@H](CO)C(=O)N4)NC(=O)[C@@H]1CCCN1C(=O)[C@H](Cc1ccccc1)NC(=O)CNC(=O)[C@H](CC(N)=O)NC(=O)[C@H](CCCCN)NC(=O)[C@H](Cc1ccc(O)cc1)NC3=O)C(=O)N[C@@H](C(C)C)C(=O)N[C@@H](Cc1ccc(O)cc1)C(=O)N[C@@H](CC(C)C)C(=O)N1CCC[C@H]1C(=O)N2", "test": "resazurin", "conditions": "24 h", "endpoint": "CC50", "result": "4760 ± 700 nM"}
{"SMILES": "CC[C@H](C)[C@@H]([C@@H](CC(=O)N1CCC[C@H]1[C@H](OC)[C@@H](C)C(=O)N[C@@H](Cc1ccccc1)C(=O)O)OC)N(C)C(=O)[C@@H](NC(=O)[C@H](C(C)C)N(C)C(=O)CCSSC[C@H](NC(=O)[C@@H](NC(=O)CNC(=O)[C@H](CCC(=O)O)NC(=O)[C@H](CC(=O)O)NC(=O)[C@H](C)NC(=O)[C@H](CC(=O)O)NC(=O)[C@@H](NC(=O)[C@H](CC(C)C)NC(=O)[C@H](CC(C)C)NC(=O)[C@H](C)NC(=O)[C@H](CC(C)C)NC(=O)[C@H](CC(=O)O)NC(=O)[C@H](CC(C)C)NC(=O)[C@H](CC(C)C)NC(=O)[C@H](CC(C)C)NC(=O)[C@H](CC(C)C)NC(=O)[C@@H]1CCCN1C(=O)[C@@H](NC(=O)[C@@H](NC(=O)[C@H](Cc1ccccc1)NC(=O)[C@H](CC(C)C)NC(=O)[C@H](Cc1c[nH]c2ccccc12)NC(=O)[C@H](CC(=O)O)NC(=O)[C@H](C)NC(=O)[C@H](Cc1ccc(O)cc1)NC(=O)[C@H](CCCNC(=N)N)NC(=O)[C@H](C)NC(=O)[C@H](Cc1c[nH]c2ccccc12)NC(=O)[C@H](Cc1ccc(O)cc1)NC(=O)[C@@H](NC(=O)[C@@H]1CCCN1C(=O)[C@H](CC(N)=O)NC(=O)[C@H](CCC(N)=O)NC(=O)[C@H](CCC(=O)O)NC(=O)CNC(=O)CN)[C@@H](C)CC)[C@@H](C)O)[C@@H](C)O)C(C)C)[C@@H](C)O)C(=O)NCC(N)=O)C(C)C", "test": "MTT", "conditions": "0.53 µM, pH 6.0, without Ca2+", "endpoint": "cytotoxicity", "result": "23%"}
{"SMILES": "CC=C(C)C(=O)OC1C(O)C2OC(COC(=O)CCC(=O)CCCCCCC(CCCCC)OC3OC(C)C(O)C(O)C3O2)C1OC(=O)C=Cc1ccccc1 (centres unmarked)", "test": "cytotoxicity", "endpoint": "IC50", "result": "133 nM"}
{"SMILES": "CC(=O)Nc1ccc(-c2csc(NS(C)(=O)=O)n2)cc1", "test": "resazurin", "conditions": "concentration not given", "endpoint": "cytotoxicity", "result": "not toxic"}
{"SMILES": "CC[C@H](C)[C@@H]1NC(=O)[C@H](C)NC(=O)[C@H](C)NC(=O)[C@H]([C@@H](C)O)NC(=O)[C@H](Cc2ccccc2)NC(=O)[C@@H]2CSSC[C@@H]3NC(=O)[C@H](C(C)C)NC(=O)[C@H](CCCCN)NC(=O)[C@H](CO)NC(=O)[C@H](CCCCN)NC(=O)[C@@H]4CSSC[C@H](NC(=O)[C@H](CO)NC(=O)[C@H](CCC(=O)O)NC(=O)CNC(=O)[C@H](CSSC[C@H](NC(=O)CNC1=O)C(=O)N[C@@H](CO)C(=O)N4)NC(=O)[C@@H]1CCCN1C(=O)[C@H](Cc1ccccc1)NC(=O)CNC(=O)[C@H](CC(N)=O)NC(=O)[C@H](CCCCN)NC(=O)[C@H](Cc1ccc(O)cc1)NC3=O)C(=O)N[C@@H](C(C)C)C(=O)N[C@@H](Cc1ccc(O)cc1)C(=O)N[C@@H](CC(C)C)C(=O)N1CCC[C@H]1C(=O)N2", "test": "resazurin", "conditions": "24 h", "endpoint": "CC50", "result": "1080 ± 40 nM"}
{"SMILES": "N=C(N)NCCC[C@H](NC(=O)[C@@H]1CCCN1C(=O)[C@H](CC(N)=O)NC(=O)[C@H](Cc1ccccc1)NC(=O)[C@H](Cc1c[nH]cn1)NC(=O)[C@H](Cc1ccccc1)NC(=O)[C@H](Cc1ccccc1)NC(=O)Cc1ccc2ccccc2c1)C(=O)O", "conditions": "200 µM, 1 h, 37 °C", "endpoint": "intracellular concentration", "result": "297 µM"}
{"SMILES": "S=c1n(-c2ccccc2)c2c3ccccc3nc3[n+]2[n]1[Ir-3]12([S]3)([c]3cccc4ccc5ccc[n+]1c5c34)[c]1cccc3ccc4ccc[n+]2c4c13", "conditions": "10 µM, 24 h, added: ER-Tracker Red 1 µM", "endpoint": "Pearson correlation coefficient", "result": 0.9}
{"SMILES": "NCCCC[C@H](NC(=O)[C@H](CCCCNC(=O)CCC(=O)Nc1nnc(S(N)(=O)=O)s1)NC(=O)[C@H](Cc1ccccc1)NC(=O)[C@H](Cc1ccccc1)NC(=O)CCCc1ccc2ccc3cccc4ccc1c2c34)C(N)=O", "test": "MTT", "conditions": "concentration not given, 24 h, normoxia", "endpoint": "cytotoxicity", "result": "not toxic"}
{"SMILES": "CC[C@H](C)[C@@H]1NC(=O)[C@H](C)NC(=O)[C@H](C)NC(=O)[C@H]([C@@H](C)O)NC(=O)[C@H](Cc2ccccc2)NC(=O)[C@@H]2CSSC[C@@H]3NC(=O)[C@H](C(C)C)NC(=O)[C@H](CCCCN)NC(=O)[C@H](CO)NC(=O)[C@H](C)NC(=O)[C@@H]4CSSC[C@H](NC(=O)[C@H](CO)NC(=O)[C@H](CCC(=O)O)NC(=O)CNC(=O)[C@H](CSSC[C@H](NC(=O)CNC1=O)C(=O)N[C@@H](CO)C(=O)N4)NC(=O)[C@@H]1CCCN1C(=O)[C@H](Cc1ccccc1)NC(=O)CNC(=O)[C@H](CC(N)=O)NC(=O)[C@H](CCCCN)NC(=O)[C@H](Cc1ccc(O)cc1)NC3=O)C(=O)N[C@@H](C(C)C)C(=O)N[C@@H](Cc1ccc(O)cc1)C(=O)N[C@@H](CC(C)C)C(=O)N1CCC[C@H]1C(=O)N2", "test": "resazurin", "conditions": "24 h", "endpoint": "CC50", "result": "1540 ± 80 nM"}
{"SMILES": "COc1cccc(NC[C@@H](O)Cn2c3ccc(Br)cc3c3cc(Br)ccc32)c1", "test": "CellTiter-Glo", "conditions": "48 h", "endpoint": "GI50", "result": "23500 nM"}
{"SMILES": "CC[C@H](C)[C@H](NC(=O)[C@H](CC(C)C)NC(=O)[C@@H](NC(=O)[C@@H](N)CC(C)C)[C@@H](C)CC)C(=O)N[C@@H](CC(C)C)C(=O)N[C@@H](C)C(=O)N[C@@H](C)C(=O)N[C@@H](CCCCN)C(=O)N[C@@H](CC(C)C)C(=O)N[C@@H](C)C(=O)N[C@@H](CCCCN)C(=O)N[C@@H](C)C(=O)N[C@@H](CC(C)C)C(=O)N[C@@H](CCCCN)C(=O)N[C@@H](CCCCN)C(=O)N[C@@H](CCC(=O)O)C(=O)N[C@@H](C)C(=O)N[C@@H](CCCCN)C(=O)N[C@@H](C)C(=O)N[C@@H](CC(C)C)C(=O)N[C@@H](CCCCN)C(N)=O", "test": "cytotoxicity, MTT", "conditions": "1 h, 37 °C", "endpoint": "IC50", "result": "31100 nM"}
{"SMILES": "CCN(CC)CC(=O)NNc1ccccc1Sc1cc(Cl)ccc1[N+](=O)[O-]", "endpoint": "CC50", "result": "30000 nM"}
{"SMILES": "CC[C@H](C)[C@@H]1NC(=O)[C@H](C)NC(=O)[C@H](C)NC(=O)[C@H]([C@@H](C)O)NC(=O)[C@H](Cc2ccccc2)NC(=O)[C@@H]2CSSC[C@@H]3NC(=O)[C@H](C(C)C)NC(=O)[C@H](CCCCN)NC(=O)[C@H](CO)NC(=O)[C@H](CCCCN)NC(=O)[C@@H]4CSSC[C@H](NC(=O)[C@H](CO)NC(=O)[C@H](CCC(=O)O)NC(=O)CNC(=O)[C@H](CSSC[C@H](NC(=O)CNC1=O)C(=O)N[C@@H](CO)C(=O)N4)NC(=O)[C@@H]1CCCN1C(=O)[C@H](Cc1ccccc1)NC(=O)CNC(=O)[C@H](C)NC(=O)[C@H](CCCCN)NC(=O)[C@H](Cc1ccc(O)cc1)NC3=O)C(=O)N[C@@H](C(C)C)C(=O)N[C@@H](Cc1ccc(O)cc1)C(=O)N[C@@H](CC(C)C)C(=O)N1CCC[C@H]1C(=O)N2", "test": "resazurin", "conditions": "24 h", "endpoint": "CC50", "result": "670 ± 30 nM"}
{"SMILES": "O=C(Cc1ccc2ccccc2c1)N[C@H](Cc1ccccc1)C(=O)N[C@H](Cc1ccccc1)C(=O)N[C@H](Cc1ccc(OP(=O)(O)O)cc1)C(=O)O", "test": "MTT", "conditions": "400 µM, 24 h", "endpoint": "viability", "result": "~10%"}
{"SMILES": "CCCCCCCCCCCCCC(=O)N[C@@H](CCCCN)C(=O)N[C@@H](CCCCN)C(N)=O", "test": "MTS", "conditions": "100 µM", "endpoint": "cytotoxicity", "result": "toxic"}
{"SMILES": "CC[C@H](C)[C@@H]1NC(=O)[C@H](C)NC(=O)[C@H](C)NC(=O)[C@H]([C@@H](C)O)NC(=O)[C@H](Cc2ccccc2)NC(=O)[C@@H]2CSSC[C@@H]3NC(=O)[C@H](C(C)C)NC(=O)[C@H](CCCCN)NC(=O)[C@H](CO)NC(=O)[C@H](CCCCN)NC(=O)[C@@H]4CSSC[C@H](NC(=O)[C@H](CO)NC(=O)[C@H](CCC(=O)O)NC(=O)CNC(=O)[C@H](CSSC[C@H](NC(=O)CNC1=O)C(=O)N[C@@H](CO)C(=O)N4)NC(=O)[C@@H]1CCCN1C(=O)[C@H](Cc1ccccc1)NC(=O)CNC(=O)[C@H](CC(N)=O)NC(=O)[C@H](CCCCN)NC(=O)[C@H](C)NC3=O)C(=O)N[C@@H](C(C)C)C(=O)N[C@@H](Cc1ccc(O)cc1)C(=O)N[C@@H](CC(C)C)C(=O)N1CCC[C@H]1C(=O)N2", "test": "resazurin", "conditions": "24 h", "endpoint": "CC50", "result": "1830 ± 110 nM"}
{"SMILES": "N=C(N)NCCC[C@@H]1NC(=O)[C@H](Cc2csc3ccccc23)NC(=O)[C@@H](Cc2ccccc2)NC(=O)[C@H](Cc2ccccc2)NC(=O)[C@H](CCC(=O)NCCOCCOCC(=O)N[C@@H](CCCCNC(=O)c2ccc3c(c2)C(=O)OC32c3ccc4cc(O)ccc4c3Oc3c2ccc2cc(O)ccc32)C(N)=O)NC(=O)[C@@H](CCCNC(=N)N)NC(=O)[C@H](CCCNC(=N)N)NC(=O)[C@@H](CCCNC(=N)N)NC1=O", "test": "flow cytometry", "conditions": "5.0 µM, 2 h, 10% FBS", "scale": "relative to: CPP12", "endpoint": "cellular uptake", "result": "98 ± 11%"}
{"note": "Some of these lines once more:"}
{"SMILES": "CC[C@H](C)[C@@H]1NC(=O)[C@H](C)NC(=O)[C@H](C)NC(=O)[C@H]([C@@H](C)O)NC(=O)[C@H](Cc2ccccc2)NC(=O)[C@@H]2CSSC[C@@H]3NC(=O)[C@H](C)NC(=O)[C@H](CCCCN)NC(=O)[C@H](CO)NC(=O)[C@H](CCCCN)NC(=O)[C@@H]4CSSC[C@H](NC(=O)[C@H](CO)NC(=O)[C@H](CCC(=O)O)NC(=O)CNC(=O)[C@H](CSSC[C@H](NC(=O)CNC1=O)C(=O)N[C@@H](CO)C(=O)N4)NC(=O)[C@@H]1CCCN1C(=O)[C@H](Cc1ccccc1)NC(=O)CNC(=O)[C@H](CC(N)=O)NC(=O)[C@H](CCCCN)NC(=O)[C@H](Cc1ccc(O)cc1)NC3=O)C(=O)N[C@@H](C(C)C)C(=O)N[C@@H](Cc1ccc(O)cc1)C(=O)N[C@@H](CC(C)C)C(=O)N1CCC[C@H]1C(=O)N2", "test": "resazurin", "conditions": "24 h", "endpoint": "CC50", "result": "4760 ± 700 nM"}
{"SMILES": "CC[C@H](C)[C@@H]([C@@H](CC(=O)N1CCC[C@H]1[C@H](OC)[C@@H](C)C(=O)N[C@@H](Cc1ccccc1)C(=O)O)OC)N(C)C(=O)[C@@H](NC(=O)[C@H](C(C)C)N(C)C(=O)CCSSC[C@H](NC(=O)[C@@H](NC(=O)CNC(=O)[C@H](CCC(=O)O)NC(=O)[C@H](CC(=O)O)NC(=O)[C@H](C)NC(=O)[C@H](CC(=O)O)NC(=O)[C@@H](NC(=O)[C@H](CC(C)C)NC(=O)[C@H](CC(C)C)NC(=O)[C@H](C)NC(=O)[C@H](CC(C)C)NC(=O)[C@H](CC(=O)O)NC(=O)[C@H](CC(C)C)NC(=O)[C@H](CC(C)C)NC(=O)[C@H](CC(C)C)NC(=O)[C@H](CC(C)C)NC(=O)[C@@H]1CCCN1C(=O)[C@@H](NC(=O)[C@@H](NC(=O)[C@H](Cc1ccccc1)NC(=O)[C@H](CC(C)C)NC(=O)[C@H](Cc1c[nH]c2ccccc12)NC(=O)[C@H](CC(=O)O)NC(=O)[C@H](C)NC(=O)[C@H](Cc1ccc(O)cc1)NC(=O)[C@H](CCCNC(=N)N)NC(=O)[C@H](C)NC(=O)[C@H](Cc1c[nH]c2ccccc12)NC(=O)[C@H](Cc1ccc(O)cc1)NC(=O)[C@@H](NC(=O)[C@@H]1CCCN1C(=O)[C@H](CC(N)=O)NC(=O)[C@H](CCC(N)=O)NC(=O)[C@H](CCC(=O)O)NC(=O)CNC(=O)CN)[C@@H](C)CC)[C@@H](C)O)[C@@H](C)O)C(C)C)[C@@H](C)O)C(=O)NCC(N)=O)C(C)C", "test": "MTT", "conditions": "0.53 µM, pH 6.0, without Ca2+", "endpoint": "cytotoxicity", "result": "23%"}
